Measurements collected from several papers.
Compare with care: the assays were run in different laboratories. ± gives the spread as reported.
DRD2 long isoform: D(2) dopamine receptor, long isoform (DRD2, Homo sapiens, UniProt P14416)
Sequence of UniProt P14416 (whole entry, looked up): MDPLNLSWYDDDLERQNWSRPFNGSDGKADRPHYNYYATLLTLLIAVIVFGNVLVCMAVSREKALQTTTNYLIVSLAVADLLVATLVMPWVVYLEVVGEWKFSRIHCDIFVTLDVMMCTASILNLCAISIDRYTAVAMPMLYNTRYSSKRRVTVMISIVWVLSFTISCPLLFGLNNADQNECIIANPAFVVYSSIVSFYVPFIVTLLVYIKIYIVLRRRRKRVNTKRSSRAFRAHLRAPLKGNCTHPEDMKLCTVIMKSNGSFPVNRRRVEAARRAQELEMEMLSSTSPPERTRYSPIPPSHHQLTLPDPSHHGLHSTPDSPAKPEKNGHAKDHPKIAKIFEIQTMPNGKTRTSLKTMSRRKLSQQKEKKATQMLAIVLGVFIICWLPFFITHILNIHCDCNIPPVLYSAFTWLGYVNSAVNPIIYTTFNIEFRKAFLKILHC
DRD2: D(2) dopamine receptor (DRD2, Homo sapiens, UniProt P14416)

SMILES	target	test	test system	setting	quantity	value
Cc1cc2c(N3CCN(CCCCOc4ccc5c(c4)NC(=O)CC5)CC3)cccc2n1C	DRD2 long isoform	β-arrestin2 recruitment, agonist, Tango	human cells	–	log(τ/KA)	8.39 ± 0.15
NC/C(=C\F)COc1cccc(Cn2c(=S)[nH]c(=O)c3[nH]cnc32)c1	DRD2	radioligand binding	–	10 µM	inhibition	< 50%
COc1cc2c(cc1OC)C(=O)C(CC1CCN(Cc3ccccc3)CC1)C2 (stereo not drawn)	DRD2	radioligand binding	–	10 µM, together with: [3H]N-methylspiperone	inhibition	18.6%
O=C(Nc1ccc(S(=O)(=O)N2CCC(Cl)CC2)cc1)c1ccc([N+](=O)[O-])o1	DRD2	radioligand binding	–	10 µM	inhibition	21%
O=C(NO)c1ccc(CN2CCCCc3ccccc32)c(F)c1	DRD2	radioligand binding, radioligand displacement	–	10 µM, mean of replicates	inhibition	-4.77%
COc1cc(NC(C)=O)c(Cl)cc1C(=O)Nc1nccs1	DRD2	–	–	10 µM	inhibition	-2.3%
CCN1/C(=C/C(C)=O)Sc2ccc(F)cc21	D(2) dopamine receptor, short isoform (DRD2, Homo sapiens, UniProt P14416)	radioligand binding	–	10 µM	inhibition	6.33%
Cc1cc(F)cc2c(CCC(=O)N[C@@H]3C(=O)NC[C@H]3O)c(-c3ccc(F)cc3)[nH]c12	DRD2	binding	–	10 µM	inhibition	-9%
OCCCN1CC[C@@H]2C[C@H]1c1cc(-c3ccc(C(F)(F)F)cc3)ccc12	DRD2	radioligand binding, PDSP competition binding	–	10 µM	inhibition	< 50%
CCN1CCCC1CNC(=O)c1cc(S(N)(=O)=O)ccc1OC (stereo not drawn)	DRD2	β-arrestin recruitment, antagonist, Schild analysis	–	together with: dopamine	Schild slope	0.678 ± 0.026
Oc1cccc(Nc2nc(-c3ccc(F)cc3F)cs2)c1	DRD2	–	–	10 µM	inhibition	-5.7%
Cc1cc2c(N3CCN(CCCCOc4ccc5c(c4)NC(=O)CC5)CC3)cccc2[nH]1	DRD2 long isoform	β-arrestin2 recruitment, agonist, Tango	human cells	–	log(τ/KA)	9.11 ± 0.01

Some of these lines once more:
SMILES	target	test	test system	setting	quantity	value
Cc1cc(F)cc2c(CCC(=O)N[C@@H]3C(=O)NC[C@H]3O)c(-c3ccc(F)cc3)[nH]c12	DRD2	binding	–	10 µM	inhibition	-9%
